Results from different studies.
Parts stem from different laboratories: compare values within a part only.

Series 1 — method: aptamer microarray, sandwich; form: DNA with 2'F-ANA; medium: in vitro; concentration: 200 nM; together with: Cy3 exosite-II aptamer, 400 nM; reading: higher = stronger binding; sequence: GGTTGGTGTGGTTGG
Target: Prothrombin, mature alpha-thrombin (F2, Homo sapiens, UniProt P00734)
Setting: whole 15-mer aptamer, many near background
Modification	mean fluorescence intensity
2'F-ANA at 3 4 5 6 9 10 12	62.6 a.u.
2'F-ANA at 2 3 7 8 10 11 13 15	288 a.u.
2'F-ANA at 3 7 8 9 10 11 12 13 14	436 a.u.
2'F-ANA at 1 3 5 8 10 11 14 15	48.3 a.u.
2'F-ANA at 2 3 8 9 10 11 13 14 15	249 a.u.
2'F-ANA at 2 3 7 9 10 13 14 15	296 a.u.
2'F-ANA at 3 4 5 7 10 15	58.2 a.u.
2'F-ANA at 1 5 6 7 12	103 a.u.
2'F-ANA at 2 3 5 7 8 10 11 12 14 15	343 a.u.
2'F-ANA at 1 3 5 6 8 10 13	48.8 a.u.
2'F-ANA at 1 2 4 5 6 7 8 10 11 12 13	109 a.u.
2'F-ANA at 1 2 7 8 13 14	99.6 a.u.
2'F-ANA at 4 5 7 11 12 14 15	203 a.u.
2'F-ANA at 1 6 8 10 13 15	53.6 a.u.
2'F-ANA at 1 3 4 7 8 11 14	82 a.u.
2'F-ANA at 1 2 4 10 12	60 a.u.
2'F-ANA at 5 6 7 10 14 15	44 a.u.
2'F-ANA at 4 5 6 7 10 11 13 14	51.8 a.u.
2'F-ANA at 1 3 6 11 13 15	195 a.u.
2'F-ANA at 3 6 8 10 12 14	363 a.u.

Series 2 — method: protein-binding microarray; form: double-stranded DNA, one strand shown; medium: in vitro; concentration: 2540 nM top; setting: 60-bp whole probe; together with: salmon DNA 0.4 mg/ml; reference: random background probes; reading: higher = stronger binding; all sequences stand within: GCCTAGCAC … GTCTTGATTCGCTTGACGCTGCTG
Target: Interferon regulatory factor 3, full length, phosphomimetic (IRF3, Homo sapiens, UniProt Q14653, residues 1-427, S386D/S396D/S398D/S402D/T404D/S405D)
Sequence of UniProt Q14653 (whole entry, unmodified, looked up): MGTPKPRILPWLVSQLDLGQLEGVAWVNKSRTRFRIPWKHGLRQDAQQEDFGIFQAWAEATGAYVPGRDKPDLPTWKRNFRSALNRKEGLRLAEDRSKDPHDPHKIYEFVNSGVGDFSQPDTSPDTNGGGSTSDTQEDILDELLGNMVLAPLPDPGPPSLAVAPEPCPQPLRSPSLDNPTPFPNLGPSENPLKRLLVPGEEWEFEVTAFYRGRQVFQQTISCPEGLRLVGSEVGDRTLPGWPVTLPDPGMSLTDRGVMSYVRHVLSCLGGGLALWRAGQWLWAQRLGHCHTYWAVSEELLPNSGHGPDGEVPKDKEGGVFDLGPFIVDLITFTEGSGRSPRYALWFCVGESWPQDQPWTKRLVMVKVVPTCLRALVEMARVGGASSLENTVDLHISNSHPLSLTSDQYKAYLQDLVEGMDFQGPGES
Sequence	fitted relative affinity [z-score]
TTATATATCGGGTATCGATTAGTGCTA	0.671
TTAGATATCGAGTTTCGATTAGTGCTA	2.33
TTAGGACTGCTACTGCGTTAGTGCTAG	-0.793
TCACAGTTTAATATCTAACTGTGCTAG	0.702
TCATCATTATTGTGTCAAACTGTGCTA	0.435
TTAGGTCTCGGTATCGATTAGTGCTAG	1.6
TTAGGTAACGACACTGGGTTAGTGCTA	-0.377
TTAGGACTGCTTATCCTTTTGTGCTAG	0.49
TGTTTTTCATTTTTTTTCATGTGCTAG	2.48
TTAGGTCTCCTGATCCTTTAGTGCTAG	0.725
AACGGTCTCGGTATCGGGACGTGCTAG	1.74
TTAGGTATCGGGTTTCGATTAGTGCTA	3.25
GACGGTCTCCTACTCCTGACGTGCTAG	2.07
CACCCTTGGAAGTATGACTCTGTGCTA	-0.00796
GACGGACTGCGTATCGGGACGTGCTAG	-0.0827
GGCGGTTCCGGTTTCGGGACGTGCTAG	6.34
TTAGAGCTGGGGACTGGATTAGTGCTA	-1.22
TTAGGTTTCGACTCTGGGTTAGTGCTA	3.15
GACGATATCGGGACGGGAGACGTGCTA	0.0242
GACGAGCTCAGTCTCGAGACGTGCTAG	0.0122
GAGGGTTTCCTTTCCCTGACGTGCTAG	8.7
GACGGTCTCGGTTTCGGGATGTGCTAG	4.2
TTGTGTCAACTTTCTCTGCTCGTGCTA	0.831
TCAGCTCTAGGTTCTCTGACTGTGCTA	-0.466
CTCATTTTCGTTTTGTGTCTGTGCTAG	4.53

Series 3 — method: RNA Bind-n-Seq; form: RNA; medium: in vitro; concentration: 365 nM; reference: no-protein control; reading: higher = stronger binding
Target: RNA binding protein fox-1 homolog 2, RRM domain, GST-SBP tag (RBFOX2, Homo sapiens, UniProt O43251-10, residues 100-194)
Setting: natural RNA segment, single round, ends assumed
Target sequence (chain): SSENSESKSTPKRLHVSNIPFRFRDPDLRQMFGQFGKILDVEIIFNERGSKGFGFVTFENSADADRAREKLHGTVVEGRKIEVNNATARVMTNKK
Sequence	RBNS enrichment (R)
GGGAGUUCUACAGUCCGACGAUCUGGCAUCGCCCUGUCCUGCCUUGGCCAGAAGCCUGGAGCUUUGGUUUGAGGAGGUAGAGAUAUGUGUAUCCAUAGGAAGAGAUCUGUCAGAACAGGCAGCUGUUGAGCUCUGGAAUUCUCGGGUGCCAA	0.336
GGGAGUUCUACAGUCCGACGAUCCCCGGCUGGGAGUGACAGGGUGCUUCUUAGAUUCUAUUGGUCCUUCUCUCAUUCUCCGAACUUACUCCUUUUUAUGGGUAAGUCAACUAGGUUUACAGUCCCUUAUUUUUUGGAAUUCUCGGGUGCCAA	0.448
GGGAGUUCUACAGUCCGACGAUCCUUGAUGGCUUUGCGGAGCCCCUGCAAAGUGUCACUAGUCAAUGGGAACAAGAGGAAUGUCCCCUGGUCUGGAAGUGUGCUAAGUGGAAGGAAUGGGCUGUGAGACUGGAUGGAAUUCUCGGGUGCCAA	1.03
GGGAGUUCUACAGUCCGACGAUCUUAAAGCAAGGAAAAGUGUAACUGAAACACUGCACUUUACUGUUUUAUACUUUUGUACAUAUGAGAAAUCAAGGGAUUAGUGCAACCAGUAGAAAGCAUUGAAAUGACUGUGGAAUUCUCGGGUGCCAA	0.717
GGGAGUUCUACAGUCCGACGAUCACCCACAGAGGUCUGUGCCAGGUGCGCUUCUGCAGGUGGAGCCAAGCUCUCCCUGAGGCCAGAGGCGGGGCCUGGGCCGGGAGCCCAGGGGAAGGCCAGGCUGGACCCCGUGGAAUUCUCGGGUGCCAA	0.331
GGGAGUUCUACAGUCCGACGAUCCCAUAGUAUGCUCUGAGUAGCUUUACACUGCCUGGUACUGAUAGUAGUGGCUCGAUUUUUAAGAGCCUUCAAUUGUAGAUGAACAUCUCUGUUAUUUAUCCCUCAUUCAUUGGAAUUCUCGGGUGCCAA	0.51
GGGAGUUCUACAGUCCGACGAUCCCCACUCUGAGAUGACAGUGGCUGACUUCCCGUGCUGGGCUUUUCCAUUGUCCCCCUGGCCUCCAGGCUCCUCCUCUGCCUCUCCAUGGAGUGGGUGGGGAGGUGGUGGGUGGAAUUCUCGGGUGCCAA	0.34
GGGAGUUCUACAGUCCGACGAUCCAGGAAGCACUUGUCCCCCCUGGCACGGAAUCCAGAGGGUUCCUCGUCCUUUACCAGUGUCAACCCCAGAGGCUUUCUCUCUCCAGAACUGGCCAGCUAGAGACCGUUCUUGGAAUUCUCGGGUGCCAA	0.438
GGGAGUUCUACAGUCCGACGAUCCCAUACGAGGAGCCCACCGUCCCUGUCCCUCGAGGUCACGUCCCACCGCUGCACUAAGGACUCACGGCCCAGCGUCCACAAGACUGAGGCCCUGUCCCUGCUCAGAGAACUGGAAUUCUCGGGUGCCAA	0.402
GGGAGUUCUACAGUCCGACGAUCCAGCUUACUGCAGCACUGUUGGUGUUCGGAGCUCUUCUGUGCCCUGGCUCCAUGCUUUCACCUACACAAGCAUCACCUUCCUAAUCACCGCGGGGCGGGGAGCGUGUGGCUGGAAUUCUCGGGUGCCAA	0.448
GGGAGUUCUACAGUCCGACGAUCUUUAUAUUUUAGUUUGUCACCUUUGCAUUGCAGAAUAAAUACUGAAUAACCAUUUUUAUAAGCAGUUGCUCCUCUUUGCAUGGUUCUAUUCUCUAAAAGUGUUGAAUGAUUGGAAUUCUCGGGUGCCAA	0.931
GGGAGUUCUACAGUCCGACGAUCCCUCCUUGUCCUGGAUUUCCAGCUCUCCCCAUGCCCCCUCCCUGAGCACCACCGGCACCGCCUCCCAAACAGGGCUGCUGGUUUCCGCAGCCACUGCUCCACCUCCCCCAUGGAAUUCUCGGGUGCCAA	1.18

Series 4 — method: RNA Bind-n-Seq; form: RNA; medium: in vitro; concentration: 1 µM; setting: whole 134-nt RNA, ends assumed; together with: 150 mM KCl; reference: input library; reading: higher = stronger binding
Target: Ras GTPase-activating protein-binding protein 1, RRM domain (G3BP1, Homo sapiens, UniProt Q13283)
Sequence of UniProt Q13283 (whole entry, looked up): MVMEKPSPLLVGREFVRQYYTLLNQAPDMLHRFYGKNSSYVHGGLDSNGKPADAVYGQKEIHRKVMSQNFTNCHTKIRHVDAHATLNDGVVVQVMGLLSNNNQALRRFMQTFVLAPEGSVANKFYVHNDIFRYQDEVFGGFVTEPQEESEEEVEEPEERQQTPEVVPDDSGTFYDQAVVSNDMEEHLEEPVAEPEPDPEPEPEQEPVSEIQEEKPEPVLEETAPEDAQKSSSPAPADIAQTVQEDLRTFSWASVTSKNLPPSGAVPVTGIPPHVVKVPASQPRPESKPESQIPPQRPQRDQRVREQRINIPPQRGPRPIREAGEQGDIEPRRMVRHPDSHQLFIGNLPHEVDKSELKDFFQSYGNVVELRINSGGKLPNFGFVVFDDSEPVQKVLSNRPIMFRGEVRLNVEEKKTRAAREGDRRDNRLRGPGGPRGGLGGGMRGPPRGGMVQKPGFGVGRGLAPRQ
Sequence	log2 enrichment
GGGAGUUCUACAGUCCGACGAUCGCAGGAAGUAAAAACAAAUGGAAAUGCUUCGGAUAGUGGCAGAAAUGGGGGUUGCUAAGGAAAGGGUGGGAUGGGAGUGGGUAAAGAGUUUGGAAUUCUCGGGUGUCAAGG	0.765
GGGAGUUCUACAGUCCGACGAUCGUCCUGUGCUACACAUCGUAUGUACCGAAUCGGUUUUUUUGGAAAAAGGUUUUUUUGGAAAGUAUUAUGUUACGCCGUUCGGAUCUGCACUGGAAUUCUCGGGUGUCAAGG	-0.405
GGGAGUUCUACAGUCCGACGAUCCACAGACAACACGCAUCCACACAGACACAGAGGGAAGGGGUUGGGAUGGGGACAGGGUGCACAGCAGGGCGGGGUAGGACCCCAGCCCCUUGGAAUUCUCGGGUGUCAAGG	0.0502
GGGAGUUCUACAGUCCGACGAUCCCUGUGCUACACAUCGUAUGUACCGAAUCGGGUUUUUGGGAAAAAAAGGGUUUUUUUGGGAAAGUAUUAUGUUACGCCGUUCGGAUCUGCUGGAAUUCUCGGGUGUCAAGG	-0.268
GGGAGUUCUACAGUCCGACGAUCUCAUGUAUAGACAACGCCAUUAUUGACGAGAUCACUCCCAAGCGGAUUGGAGAUUGUCCCAAUAUUUAGACCUAUAGCAAGGCCUUGGGAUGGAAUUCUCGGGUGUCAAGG	0.0282
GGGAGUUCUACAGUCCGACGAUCGUCCUGUGCUACACAUCGUAUGUACCGAAUCGGGAAAAAGGAAAAAGGGGAAAAAGGGGAAAGUAUUAUGUUACGCCGUUCGGAUCUGCAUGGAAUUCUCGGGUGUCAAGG	0.181
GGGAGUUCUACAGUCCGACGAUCUUUUCUGUUUGAAACAGUUUUAUACUUUCUGAUAUAGUACUUGAAAUUCUUACCAGAAAAUUACUUUGGAGUUUUGAAGCCUUUAUUAAUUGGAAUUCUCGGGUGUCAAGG	-0.0715
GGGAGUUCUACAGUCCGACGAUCUAACUUUAGAGGAGGAUCUGAUGGAUAUGGCAGUGGACGUGGAUUUGGGGAUGGCUAUAAUGGGUAUGGAGGAGGACCUGGAGGUGGCAUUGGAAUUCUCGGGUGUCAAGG	-0.331
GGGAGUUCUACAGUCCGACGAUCCUCAAGUCCUGUGCUACACAUCGUAUGUACCGAAUCGGAGGUUUUUUUGGAGGAAAGUAUUAUGUUACGCCGUUCGGAUCUGCACUUCCAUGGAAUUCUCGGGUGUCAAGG	-0.17
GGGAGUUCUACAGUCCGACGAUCAAGUCCUGUGCUACACAUCGUAUGUACCGAAUCGGGGCCCGGGGCCCGGGCCCGGGGAAAGUAUUAUGUUACGCCGUUCGGAUCUGCACUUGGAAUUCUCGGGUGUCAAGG	-0.958
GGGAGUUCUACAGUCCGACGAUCCCUGUGCUACACAUCGUAUGUACCGAAUCGGGAAAAAAGGGGAAAAAAGGGGAAAAAAGGGAAAGUAUUAUGUUACGCCGUUCGGAUCUGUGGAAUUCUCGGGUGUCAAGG	0.0401
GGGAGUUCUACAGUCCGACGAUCUCCAAACCCAAGAAAAAGAAAUCUUUUUCCAAGGAGGAGUUGAUGAGUAGCGAUCUUGAAGAGACCGCUGGCAGCACCAGUAUUCCCAAGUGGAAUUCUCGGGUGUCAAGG	-0.214
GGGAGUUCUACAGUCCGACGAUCAGUCCUGUGCUACACAUCGUAUGUACCGAAUCAAACCCAAAUUUAAACCCCCCCAAAAAAGUAUUAUGUUACGCCGUUCGGAUCUGCACUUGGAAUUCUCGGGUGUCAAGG	-0.117
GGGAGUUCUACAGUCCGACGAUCUAACUUUAGAGGAGGAUCCGAUGGAUAUGGCAGUGGACGUGGAUUUGGGGAUGGCUAUAAUGGGUAUGGAGGAGGACCUGGAGGUGGCAAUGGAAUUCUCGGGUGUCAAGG	-0.83
